Experimental data pooled from the literature.
Parts stem from different laboratories: compare values within a part only. Positions count from the first letter of the parent shown.

Block 1
Target: Prothrombin, mature alpha-thrombin (F2, Homo sapiens, UniProt P00734)
Method: aptamer microarray, sandwich
Molecule type: DNA with 2'F-ANA
Medium: in vitro
Concentration: 200 nM
Notes: whole 15-mer aptamer, many near background
Together with: Cy3 exosite-II aptamer, 400 nM
Reading: higher = stronger binding
Strand: GGTTGGTGTGGTTGG
Modification	mean fluorescence intensity [a.u.]
2'F-ANA at 2 8 9 11 14 15	124
2'F-ANA at 2 3 7 8 9 10 11 13 15	344
2'F-ANA at 2 4 6 8 9 10 11	69.8
2'F-ANA at 2 4 5 6 7 9 10 11 14	44.4
2'F-ANA at 1 4 6 8 9 10 13	88.2
2'F-ANA at 3 6 9 10 11 13 15	414
2'F-ANA at 1 2 6 9 12 13	225
2'F-ANA at 1 2 8 9 12 13 15	302

Block 2
Target: Histone acetyltransferase KAT6A, winged helix 1, GST fusion (KAT6A, Homo sapiens, UniProt Q92794, residues 1-85)
Method: protein binding microarray
Molecule type: double-stranded DNA, one strand shown
Medium: in vitro
Concentration: not given
Notes: 8-mer, flanks averaged, mean of 2 arrays, mostly near background
Baseline: not given
Reading: higher = stronger binding
Construct (chain): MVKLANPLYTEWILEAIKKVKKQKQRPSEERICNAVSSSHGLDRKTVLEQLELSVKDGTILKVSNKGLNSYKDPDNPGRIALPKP
Strand	E-score
TACAATAA	-0.0326
ACTGGCTA	-0.199
CAGGAGGC	-0.0468
CGTATTGC	0.215
AACTGTCG	0.0381
GAGACTAA	-0.158
AGACAATC	-0.146
ACGCTCCA	0.0679
ACCCCCTC	-0.194

Block 3
Target: CCNF, cyclin fold, Cln2 fusion (human)
Method: yeast growth competition, sequencing
Medium: yeast
Notes: strong parent motif
Baseline: not given
Reading: higher = stronger binding
Starting sequence: INSM1 docking peptide (human); PKAIRKLHFEDEV
Change	normalised enrichment score
PKAIRKLHIEDEV [F9I]	2.11
PKAIRKLHFKDEV [E10K]	6.56
PKAIRKLHQEDEV [F9Q]	0.649
PKAIRQLHFEDEV [K6Q]	7.42

Single results of other studies
Substance	target	test	system	conditions	scale	endpoint	value
PhoQ, residues 284 288 289 292 302 303 AGHLVA	PhoP, residues 12 14 15 18 19 QWHVF (Escherichia coli, UniProt P23836)	Sort-seq, measured: YFP reporter	E. coli	PhoQ-PhoP variant library, together with: 10 µM Mg2+	baseline: high Mg2+ state, higher = stronger signaling	fold induction	9.63

For quick reference, copied from above (block 3):
Change	normalised enrichment score
PKAIRKLHIEDEV [F9I]	2.11
PKAIRKLHFKDEV [E10K]	6.56
PKAIRKLHQEDEV [F9Q]	0.649
